Measurements collected from several papers.
Protocols differ between the studies behind these lines. Several values in a cell are separate wells, animals, samples, runs or records. Numbers after ± are the reported error.
BCHE: Cholinesterase (BCHE, Homo sapiens, UniProt P06276)
Sequence of UniProt P06276 (whole entry, looked up): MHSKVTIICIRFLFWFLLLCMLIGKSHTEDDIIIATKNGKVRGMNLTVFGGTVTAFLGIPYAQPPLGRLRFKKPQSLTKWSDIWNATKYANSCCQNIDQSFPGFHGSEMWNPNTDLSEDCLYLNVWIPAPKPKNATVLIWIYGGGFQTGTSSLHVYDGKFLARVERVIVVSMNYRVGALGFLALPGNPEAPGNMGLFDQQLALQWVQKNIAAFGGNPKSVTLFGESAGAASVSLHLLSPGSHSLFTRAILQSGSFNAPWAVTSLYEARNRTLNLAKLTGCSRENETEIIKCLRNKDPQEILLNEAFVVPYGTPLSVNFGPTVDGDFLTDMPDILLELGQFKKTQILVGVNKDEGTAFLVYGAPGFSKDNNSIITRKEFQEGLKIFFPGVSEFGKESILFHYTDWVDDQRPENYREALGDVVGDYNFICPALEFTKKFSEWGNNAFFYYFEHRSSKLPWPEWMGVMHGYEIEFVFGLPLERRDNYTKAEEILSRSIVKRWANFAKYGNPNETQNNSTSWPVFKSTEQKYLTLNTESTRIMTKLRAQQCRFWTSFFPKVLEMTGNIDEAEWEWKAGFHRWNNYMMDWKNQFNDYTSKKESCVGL

Compound	tested on	test	system	setting	measurement	result
O=[N+]([O-])c1cc2c3c(ccc2c2ccccc12)[C@H](O)[C@@H](O)C=C3	–	–	female Sprague-Dawley rats	intramammary, dose not given	first palpable mammary tumour	23 weeks
CC(C)C[C@@H]1NC(=O)CNC(=O)[C@H](CC(N)=O)NC(=O)[C@H](CCCNC(=N)N)NC(=O)[C@H]([C@@H](C)O)NC(=O)[C@@H]2CSSC[C@@H]3NC(=O)[C@H]([C@@H](C)O)NC(=O)CNC(=O)CNC(=O)[C@H](C(C)C)NC(=O)[C@@H]4CSSC[C@H](NC(=O)[C@H]([C@@H](C)O)NC(=O)[C@H](CSSC[C@H](NC(=O)[C@H](C(C)C)NC(=O)[C@@H]5CCCN5C1=O)C(=O)NCC(=O)N[C@@H](CCC(=O)O)C(=O)N[C@@H]([C@@H](C)O)C(=O)N4)NC(=O)CNC(=O)[C@@H]1CCCN1C(=O)[C@H]([C@@H](C)O)NC(=O)[C@H](CC(N)=O)NC3=O)C(=O)N[C@@H](CO)C(=O)N[C@@H](Cc1c[nH]c3ccccc13)C(=O)N1CCC[C@H]1C(=O)N[C@@H](CCCCN)C(=O)N2	–	HPLC	ammonium bicarbonate	180 µM, 14 days, pH 9.0, 25 °C, deamidation stability	remaining peptide	82 ± 1.9%
COc1cc2c(Oc3ccc4[nH]c(C)cc4c3F)ccnc2cc1OCC1(N)CC1	–	–	paediatric recurrent refractory sarcoma	12 mg	grade 3 Leukopenia	0%
Clc1ccc(Cl)c(-c2cc(Cl)ccc2Cl)c1	–	–	Sprague Dawley rat	intraperitoneal, 100 mg/kg	relative liver weight	0.0417 g/g body weight
Clc1ccc(Cl)c(-c2cc(Cl)ccc2Cl)c1	–	–	fresh water	20 °C	log K(PDMS-water)	5.49 ± 0.05
O=C(NCCCNc1nc(Nc2cccc(NC(=O)N3CCCC3)c2)ncc1I)c1cccs1	–	–	aqueous buffer	24 h, pH 6.8, 37 °C	solubility	< 1 µg/mL
O=C(O)Cc1ccc(O)c(O)c1	Plasmodium falciparum	–	W2	–	IC50	5.01 µM
N=C(N)NCCC[C@@H](NC(=O)[C@@H](N)Cc1ccccc1)C(=O)N[C@@H](Cc1ccccc1)C(=O)N[C@@H](CCCCN)C(N)=O	–	LC-MS	human	15 mg, 5.833 h	mean amount excreted in urine	5.05e+06 ng
c1ccc2cc3c(cc2c1)-c1cccc2cccc-3c12	–	–	polyethylene-water partitioning	PAH compilation	literature range of log K	6.05 to 6.66 log units
CCC1=C[C@@H]2CN3CCc4c([nH]c5ccccc45)[C@@](C(=O)OC)(C2)[C@@H]13	BCHE	inhibitor	–	–	IC50	1.23 ± 0.17 µM
C=CC[N+]1([C@H]2C[C@H]3[C@@H]4CC[C@H]5C[C@H](O)[C@@H](N6CCOCC6)C[C@]5(C)[C@H]4CC[C@]3(C)[C@H]2OC(C)=O)CCCC1	–	–	Sprague Dawley rat, plasma	intravenous, 0.2 mg/kg, with: vehicle IV	AUC(0-t)	38 ng·h/mL
COc1ccc(O)c(/C=N/NC(=O)c2sc3ccccc3c2O)c1	Gag-Pol polyprotein, integrase (gag-pol, Human immunodeficiency virus 1, UniProt P12497)	strand transfer activity, inhibitor	–	wild-type integrase	IC50	> 100 µM
CC(C)CC(=O)OC[C@H]1O[C@@](C#N)(c2ccc3c(N)ncnn23)[C@H](O)[C@@H]1O	–	plasma protein binding	rat plasma	90 µM	unbound fraction	0.107
COc1ccc(-c2c(-c3ccc(C#N)c(F)c3)nc(N3CCC(N)CC3)n(C)c2=O)cc1F	–	refers to: Dyspnea	human patients	oral, dose not given, dose escalation, NG	serious adverse event incidence	2%
C[C@@H]1NC(=O)[C@H](CCCCNC(=O)CO/N=C/C(=O)NCCCC[C@@H]2NC(=O)[C@@H](Cc3ccccc3)NC(=O)[C@H](CC(=O)O)NC(=O)CNC(=O)[C@H](CCCNC(=N)N)NC2=O)NC(=O)CNC(=O)[C@@H]2CCCN2C(=O)[C@H](CCCCNC(=O)CO/N=C/C(=O)NCCCC[C@@H]2NC(=O)[C@@H](Cc3ccccc3)NC(=O)[C@H](CC(=O)O)NC(=O)CNC(=O)[C@H](CCCNC(=N)N)NC2=O)NC(=O)[C@H](CCCCNC(=O)CN2CCCNCCNCCCNCC2)NC(=O)[C@H](CCCCNC(=O)CO/N=C/C(=O)NCCCC[C@@H]2NC(=O)[C@@H](Cc3ccccc3)NC(=O)[C@H](CC(=O)O)NC(=O)CNC(=O)[C@H](CCCNC(=N)N)NC2=O)NC(=O)CNC(=O)[C@@H]2CCCN2C(=O)[C@H](CCCCNC(=O)CO/N=C/C(=O)NCCCC[C@@H]2NC(=O)[C@@H](Cc3ccccc3)NC(=O)[C@H](CC(=O)O)NC(=O)CNC(=O)[C@H](CCCNC(=N)N)NC2=O)NC1=O [copper-64 labelled]	–	–	normal mice, lung	intravenous, 0.74 MBq, 24 h post-injection	tissue uptake	1.48 ± 0.37 %ID/g
CCNC(=O)N1CCN(CCCC(c2ccc(F)cc2)c2ccc(F)cc2)CC1	Plasmodium falciparum	–	7G8	–	IC50	1.26 µM
CC/C(=C(\c1ccccc1)c1ccc(OCCN(C)C)cc1)c1ccccc1	–	–	CD-1 mouse, male, lung	intraperitoneal, 10 mg/kg	elimination rate constant	3.42e-05 s⁻¹
N.N.[Cl][Pt][Cl]	–	–	nude mouse MCF7 xenograft	5 mg/kg, day 9	body weight	14.2 ± 1.19 g

Compound	tested on	test	system	setting	measurement	result
CO[C@H]1C[C@@H]2CC[C@@H](C)[C@@](O)(O2)C(=O)C(=O)N2CCCC[C@H]2C(=O)O[C@H]([C@H](C)C[C@@H]2CC[C@@H](OC(=O)NCCOCCOCCOCCOCCOCCOCCOCCOCCC(=O)N3CCc4cc(Cn5nc(-c6ccc7oc(N)nc7c6)c6c(N)ncnc65)ccc4C3)[C@H](OC)C2)C[C@@H](O)[C@H](C)/C=C(\C)[C@@H](O)[C@@H](OC)C(=O)[C@H](C)C[C@H](C)/C=C/C=C/C=C/1C	–	–	patients with advanced solid tumours	intravenous, 6 mg weekly, any grade	decreased appetite leading to dose reduction	0%
C[C@]1(CO)Cc2ncn(-c3ccc(C#N)c(Cl)c3)c2C(=O)O1	–	–	human	concentration not given, European multiple ascending dose	disorders, nervous system, drug related	6.7%
c1ccc2c(c1)ccc1cc3c(ccc4ccccc43)cc12	–	–	fresh water	12 (unit not given), 20 °C, S30-1 sampler, 30 µm	log K(PDMS-water)	5.36 ± 0.08
C1=Cc2nc1cc1ccc([n-]1)c(C1CC1)c1nc(cc3ccc([n-]3)c2C2CC2)C=C1.CC(=O)[O-].[Mn+3]	–	LC-MS/MS	Sprague-Dawley rat, plasma	oral gavage, dose not given, 120 min	plasma concentration	324 ng/mL and 406 ng/mL
CCOC(=O)C(=O)c1csc(NC=O)n1	BCHE	inhibitor	–	with Triton	IC50	15.2 ± 8.42 µM
CN1CC[C@@H](c2c(O)cc(O)c3c(=O)cc(-c4ccc(C(F)(F)F)cc4Cl)oc23)[C@@H]1CO	–	refers to: Neutropenia	relapsed B-cell malignancies or AML	oral, 50 mg, grade 3-4, continuous dosing	patients with adverse event	0%
C[C@@H](NC(=O)N1C(=O)[C@H](Cc2ccnc(N)c2)[C@H]1C(=O)O)C1CCCCC1	–	–	healthy adult Chinese volunteers	continuous intravenous infusion, 2.25 mg/kg/h, 5-day infusion, CTCAE 5.0 grading	incidence of administration site extravasation	0%
CC[C@H](C)[C@H](NC(=O)[C@H](CC(C)C)NC(=O)[C@H](Cc1c[nH]c2ccccc12)NC(=O)[C@H](CCC(N)=O)NC(=O)[C@@H](NC(=O)[C@H](Cc1ccccc1)NC(=O)[C@H](C)NC(=O)[C@H](CCCCNC(=O)COCCOCCNC(=O)COCCOCCNC(=O)CC[C@H](NC(=O)CCCCCCCCCCCCCCCCCCC(=O)O)C(=O)O)NC(=O)[C@H](CCC(N)=O)NC(=O)[C@H](C)NC(=O)[C@@H](NC(=O)[C@H](CCCCN)NC(=O)[C@H](CC(=O)O)NC(=O)[C@H](CC(C)C)NC(=O)C(C)(C)NC(=O)[C@@H](NC(=O)[C@H](CO)NC(=O)[C@H](Cc1ccc(O)cc1)NC(=O)[C@H](CC(=O)O)NC(=O)[C@H](CO)NC(=O)[C@@H](NC(=O)[C@H](Cc1ccccc1)NC(=O)[C@@H](NC(=O)CNC(=O)[C@H](CCC(=O)O)NC(=O)C(C)(C)NC(=O)[C@@H](N)Cc1ccc(O)cc1)[C@@H](C)O)[C@@H](C)O)[C@@H](C)CC)[C@@H](C)CC)C(C)C)C(=O)N[C@@H](C)C(=O)NCC(=O)NCC(=O)N1CCC[C@H]1C(=O)N[C@@H](CO)C(=O)N[C@@H](CO)C(=O)NCC(=O)N[C@@H](C)C(=O)N1CCC[C@H]1C(=O)N1CCC[C@H]1C(=O)N1CCC[C@H]1C(=O)N[C@@H](CO)C(N)=O	–	–	human, plasma	subcutaneous, 15 mg, week 8, geometric mean	Vz/F	5.61 L
CC(=O)c1c(C)c2cnc(Nc3ccc(C4CCN(CCS(C)(=O)=O)CC4)cn3)nc2n(C2CCCC2)c1=O	–	–	HR+/HER2- advanced breast cancer patients	oral, 150 mg	patients with any TRAE	100%
CN1CCN(c2ccc(Nc3nccc(-c4cccc([N+](=O)[O-])c4)n3)cc2C(F)(F)F)CC1	–	–	zebrafish embryos	50 µM, 5 d	toxicity	0%
CC/C(=N\NC(=O)c1ccc(F)cc1)c1cc(Cl)cc(Cl)c1O	Gag-Pol polyprotein, integrase with LEDGF/p75 (gag-pol, Human immunodeficiency virus 1, UniProt P12497)	LEDGF/p75-integrase interaction, inhibitor, AlphaScreen	–	–	IC50	> 50 µM
O=C(O)CCCOc1ccc(F)cc1-c1cc(-c2ccccc2C(F)(F)F)n(-c2ccccc2)n1	–	refers to: T-Cho	Crl:CD(SD) rats, female, blood	iv, 25 µg/kg, 1 day	blood chemistry	67 ± 8.4 mg/dL
Cc1cc(C)c(CNC(=O)c2cc(Cl)c3c(c2C)O[C@@](C)([C@H]2CC[C@H](N(C)C)CC2)O3)c(=O)[nH]1	–	–	human, relapsed/refractory NHL	concentration not given, treatment-related TEAEs, grade 5	Infection incidence	0%
COc1cccc(Oc2ccccc2NC(=O)CNC(=O)c2cccc3ccccc23)c1	–	–	esterase-deficient SCID mice, male, blood	oral, 40 mg/kg/day, 14 days, toxicity study	hemoglobin	13.6 g/dL and 12.8 g/dL and 13.9 g/dL
CC(C)(C)c1cc(-n2nc3ccccc3n2)c(O)c(C(C)(C)C)c1	–	exposure assessment	human, age 2-3 years	spray sunscreen	mean daily dermal uptake	5.93 ng/kg body weight/day
COc1cc(C2C3=C(COC3=O)N(CCO)c3cc4c(cc32)CCC4)cc(OC)c1OC (centres unmarked)	–	–	female Sprague-Dawley rats	intraperitoneal, 400 mg/kg, 24 h, single dose, mean	body weight	200 g
N.N.[Cl][Pt][Cl]	–	–	mouse xenograft model	dose not given, day 10, group mean	body weight	19.2 g

A few entries again:
Compound	tested on	test	system	setting	measurement	result
CCOC(=O)C(=O)c1csc(NC=O)n1	BCHE	inhibitor	–	with Triton	IC50	15.2 ± 8.42 µM
CN1CC[C@@H](c2c(O)cc(O)c3c(=O)cc(-c4ccc(C(F)(F)F)cc4Cl)oc23)[C@@H]1CO	–	refers to: Neutropenia	relapsed B-cell malignancies or AML	oral, 50 mg, grade 3-4, continuous dosing	patients with adverse event	0%
C[C@@H](NC(=O)N1C(=O)[C@H](Cc2ccnc(N)c2)[C@H]1C(=O)O)C1CCCCC1	–	–	healthy adult Chinese volunteers	continuous intravenous infusion, 2.25 mg/kg/h, 5-day infusion, CTCAE 5.0 grading	incidence of administration site extravasation	0%
CC[C@H](C)[C@H](NC(=O)[C@H](CC(C)C)NC(=O)[C@H](Cc1c[nH]c2ccccc12)NC(=O)[C@H](CCC(N)=O)NC(=O)[C@@H](NC(=O)[C@H](Cc1ccccc1)NC(=O)[C@H](C)NC(=O)[C@H](CCCCNC(=O)COCCOCCNC(=O)COCCOCCNC(=O)CC[C@H](NC(=O)CCCCCCCCCCCCCCCCCCC(=O)O)C(=O)O)NC(=O)[C@H](CCC(N)=O)NC(=O)[C@H](C)NC(=O)[C@@H](NC(=O)[C@H](CCCCN)NC(=O)[C@H](CC(=O)O)NC(=O)[C@H](CC(C)C)NC(=O)C(C)(C)NC(=O)[C@@H](NC(=O)[C@H](CO)NC(=O)[C@H](Cc1ccc(O)cc1)NC(=O)[C@H](CC(=O)O)NC(=O)[C@H](CO)NC(=O)[C@@H](NC(=O)[C@H](Cc1ccccc1)NC(=O)[C@@H](NC(=O)CNC(=O)[C@H](CCC(=O)O)NC(=O)C(C)(C)NC(=O)[C@@H](N)Cc1ccc(O)cc1)[C@@H](C)O)[C@@H](C)O)[C@@H](C)CC)[C@@H](C)CC)C(C)C)C(=O)N[C@@H](C)C(=O)NCC(=O)NCC(=O)N1CCC[C@H]1C(=O)N[C@@H](CO)C(=O)N[C@@H](CO)C(=O)NCC(=O)N[C@@H](C)C(=O)N1CCC[C@H]1C(=O)N1CCC[C@H]1C(=O)N1CCC[C@H]1C(=O)N[C@@H](CO)C(N)=O	–	–	human, plasma	subcutaneous, 15 mg, week 8, geometric mean	Vz/F	5.61 L
